Experimental data pooled from the literature.
Parts stem from different laboratories: compare values within a part only. Positions count from the first letter of the parent shown.

Block 1 — target: BATF3, bZIP domain (human); method: DHFR protein complementation; medium: yeast; relative to: wild-type JUN-FOS pair; reading: higher = stronger binding
Notes: single substitutions, most at no-binding floor
Parent: JUN, bZIP domain (human); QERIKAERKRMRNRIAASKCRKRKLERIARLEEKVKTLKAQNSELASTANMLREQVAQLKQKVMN; partner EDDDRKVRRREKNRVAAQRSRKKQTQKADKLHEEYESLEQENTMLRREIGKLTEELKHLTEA
| Variant | binding fitness [natural log] |
| --- | --- |
| L52F | -0.133 |
| E54P | -0.537 |
| R30I | 0.102 |
| A46E | 0.184 |
| L45R | -0.515 |
| L45P | -0.993 |
| Q55M | 0.0703 |
| L31V | 0.21 |

Block 2 — method: DHFR PCA, dose-response; medium: yeast; notes: Hill fit, mean, not affinity; with: (+)-ABA, dose series; reading: lower = more sensitive
Target: ABI1, truncated, D143A, DHFR fusion (Arabidopsis thaliana, UniProt P49597)
Parent: PYL1, truncated, DHFR fusion (Arabidopsis thaliana, UniProt Q8VZS8); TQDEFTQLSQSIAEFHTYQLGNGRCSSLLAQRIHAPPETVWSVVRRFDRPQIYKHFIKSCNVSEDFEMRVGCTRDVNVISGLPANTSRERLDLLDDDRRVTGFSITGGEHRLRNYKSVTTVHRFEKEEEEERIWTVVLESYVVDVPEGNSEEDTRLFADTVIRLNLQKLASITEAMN
| Variant | ABA EC50 |
| --- | --- |
| R163Q | 6.98 µM |
| L169M | 77.1 µM |
| D48V | 972 µM |
| V76R | 917 µM |
| R111M | 26.3 µM |
| K168M | 9.97 µM |
| Q10V | 3.46 µM |
| C25F | 59.8 µM |

Block 3 — method: EMSA with sequencing; molecule type: double-stranded DNA, one strand shown; medium: in vitro; concentration: 10 and 20 nM; relative to: negative control set to 0; reading: higher = stronger binding
Target: Hepatocyte nuclear factor 3-alpha (Foxa1, Mus musculus, UniProt P35582, residues 1-468, full length assumed)
Notes: whole designed probe, mean of two concentrations, ends assumed
Residues (chain): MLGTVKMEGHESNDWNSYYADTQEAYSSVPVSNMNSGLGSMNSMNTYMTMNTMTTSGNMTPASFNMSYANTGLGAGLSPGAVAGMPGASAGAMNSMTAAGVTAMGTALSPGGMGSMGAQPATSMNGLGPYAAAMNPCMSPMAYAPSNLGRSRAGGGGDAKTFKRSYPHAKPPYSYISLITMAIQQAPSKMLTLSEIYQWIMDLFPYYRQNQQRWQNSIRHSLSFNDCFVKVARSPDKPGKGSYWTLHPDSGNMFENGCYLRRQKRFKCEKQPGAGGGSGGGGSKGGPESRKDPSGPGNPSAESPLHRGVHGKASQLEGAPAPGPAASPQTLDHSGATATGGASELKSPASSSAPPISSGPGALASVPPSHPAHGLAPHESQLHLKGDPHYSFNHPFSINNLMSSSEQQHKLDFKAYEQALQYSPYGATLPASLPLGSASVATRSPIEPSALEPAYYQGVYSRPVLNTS
| Sequence | normalised bound fraction [ratio] |
| --- | --- |
| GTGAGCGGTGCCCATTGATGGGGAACGTCCTTTTTAACACGCAGCGGTTGTGGGGACAAGGTTTCCGAGGAGGCGGGAGCGAGCGACGGCCCCCGCCTCCCACACGCCCTCTGCTTTGGTAAACAAGGAGACTCCCGCCCGCAGGCTGTAAATGAGGCACGAGCTTGGGGGCAGCGCCAGGGCGCCTGGCGTCACTGTTCAAAAAGGCCTCTTATTGGTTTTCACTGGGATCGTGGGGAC | 0.221 |
| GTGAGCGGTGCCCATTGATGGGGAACCCCTCATCCTGGGTGTCGGGGTGGGAGGTGTTCTCATCATGAATGGGAGGCGTACCCAGATCCAGCTCTGCCTTTTTTTAACCAAACCAGAGTGTAAACAAATGGCTGTGTGACTCACCATAATCGACATAGCAAGATATGATACATGCCAGGAGAGAAAAAGAAAGTGCTGATGGAAAAATAATCTCATTAGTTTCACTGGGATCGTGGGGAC | 0.354 |
| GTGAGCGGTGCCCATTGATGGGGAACATGAAGGGCTGCCAGTGTAATTTGAACCTCAAATAAACAACAGATAAAACTGTAGTATAATTGCACAACAGTATGTCCCATATACGATCTTTTTGTTTGCCTAATCTGGCAAAGATATTGACTTAACACACACTAATCTGTTGACAGGTAGGTGAAATATTTGAACTTCTACGTTGCTTCTCTAATCCTGTCCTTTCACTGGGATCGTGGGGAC | 0.394 |
| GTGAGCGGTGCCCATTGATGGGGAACATTCCAGGCAAAGCCAAATGACGATGCACCAGTGAGTCACCAGTGAGATTGCATTTAAAATCTAGCAGCCTCAGAGCCAAGACCAGCCTTGTGTAATCTGAGTTCAGGGAGGAGGGAAGATAGTGGAGTGAGACGTGCCGAGGCCAGCCGGCCTCTGGGCTTGGGGTGCGCTGACCTCTGGGGAGCCGAGTGCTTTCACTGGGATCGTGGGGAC | -0.0593 |
| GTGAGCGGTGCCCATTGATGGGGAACATACACTTCATTATGTCACTGTTGTTTGGTTGTGTTCTAGGCGAGAAACCACCTTTGGAAGGTTCACAGCAGCCCCAATTTAGCACTCTGCCATGTTTACATTGTCAGGCTGCATTGCCACTAGGGGGAACCATAGCTTTTTATCATCCCAGCCAGGGTGGCTGTGGGCAGCTTCTGCCTGGCAGGTAATAAGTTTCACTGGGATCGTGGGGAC | 0.394 |

Single results of other studies
Parent: viral docking peptide; KKVKRRLFETREL; partner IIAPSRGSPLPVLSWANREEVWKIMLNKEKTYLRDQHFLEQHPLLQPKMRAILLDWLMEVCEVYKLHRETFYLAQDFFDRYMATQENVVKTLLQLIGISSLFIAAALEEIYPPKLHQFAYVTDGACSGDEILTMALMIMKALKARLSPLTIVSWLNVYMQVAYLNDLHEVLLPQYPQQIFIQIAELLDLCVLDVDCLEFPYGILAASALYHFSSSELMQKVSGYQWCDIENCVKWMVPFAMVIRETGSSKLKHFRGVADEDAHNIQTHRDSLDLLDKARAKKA
| Variant | target | test | system | conditions | scale | measurement | result |
| --- | --- | --- | --- | --- | --- | --- | --- |
| KKVKRRLFEAREL [T10A] | CCNE1, cyclin fold, Cln2 fusion (human) | yeast growth competition, sequencing | yeast | strong parent motif | relative to: not given, higher = stronger binding | normalised enrichment score | 4.83 |

Repeated from above (block 2):
| Variant | ABA EC50 |
| --- | --- |
| K168M | 9.97 µM |
| Q10V | 3.46 µM |
| C25F | 59.8 µM |
